Measurements from different studies.
Every numbered part comes from another study and shows a few of its results, in no order.

Sample 1 — technique: universal PBM; molecule type: double-stranded DNA, one strand shown; medium: in vitro; tested at: not given; direction: higher = stronger binding
Target: Sal-like protein 4, full length isoform B (SALL4, Homo sapiens, UniProt Q9UJQ4-2, residues 1-616)
Setting: 8-mer, flanks averaged, mean of replicates
Sequence	E-score
ACAGGCAT	-0.0263
AAGTCGGA	-0.0792
ATTCTTCA	0.115
CATGGACG	-0.147
CGACGATA	0.0481
TAACCTCA	0.158
TAAAAGAA	0.23
ATAGAGAT	0.248

Sample 2 — technique: protein binding microarray; molecule type: double-stranded DNA, one strand shown; medium: in vitro; tested at: not given; relative to: not given; direction: higher = stronger binding
Target: Histone acetyltransferase KAT6A, winged helix 2, GST fusion (KAT6A, Homo sapiens, UniProt Q92794, residues 85-181)
Setting: 8-mer, flanks averaged, mean of 2 arrays, mostly near background
Construct (chain): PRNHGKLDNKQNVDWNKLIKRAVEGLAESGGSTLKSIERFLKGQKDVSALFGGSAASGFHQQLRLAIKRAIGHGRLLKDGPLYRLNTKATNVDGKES
Sequence	E-score
CGACCGGC	0.194
CAGTATGA	-0.0488
CCCATTCC	-0.0391
CCCCCGGC	0.188
GACATCAC	-0.0526

Sample 3 — technique: competition protein-binding microarray; molecule type: double-stranded DNA, one strand shown; medium: in vitro; tested at: 2 µM; together with: Cbf1 competitor, 0.05 µM; direction: higher = stronger binding; shared flanks, not repeated: … GTCTTGATTCGCTTGACGCTGCTG
Target: Phosphate system positive regulatory protein PHO4, full length, GST-tagged (PHO4, Saccharomyces cerevisiae, UniProt P07270, residues 1-312)
Setting: whole 60-bp probe, lowest competitor level
Target sequence (chain): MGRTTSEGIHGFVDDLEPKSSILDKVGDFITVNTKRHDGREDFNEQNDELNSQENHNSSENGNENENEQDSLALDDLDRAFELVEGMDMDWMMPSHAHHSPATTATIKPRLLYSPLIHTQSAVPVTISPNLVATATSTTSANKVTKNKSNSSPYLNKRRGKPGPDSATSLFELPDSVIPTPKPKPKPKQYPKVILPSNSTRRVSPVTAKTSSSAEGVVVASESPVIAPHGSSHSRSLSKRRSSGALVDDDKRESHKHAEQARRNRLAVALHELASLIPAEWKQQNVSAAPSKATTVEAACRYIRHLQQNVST
Sequence	fluorescence intensity [a.u.]
TGCGCAACAACTTGTTCAGTGGGTGTATGTCTAGAA	4520
CTAACGAAGGTTTGGACTGTGGGTGACAAGCCAAGT	3360
CGACGCACCGAACGATACGGGGCTTGGCTGTTTTAT	2840
GAGAGGAAGACGCGTTTCGTGGGACTTGGACCACTA	4280
TCGCCCAATGAGACGCACAATCAAGGCTATGGCTCG	3700
TATATAGTAGATCAACTCGTGCTTTGCTGGCTATAA	10800
GAGGCTTGGCAGTTCCACGTGGAAGACCTGACGGAG	15700

Mixed results
Molecule	target	assay	test system	setting	scale	endpoint	result
PhoQ, residues 284 288 289 292 302 303 TASMAF	PhoP, residues 12 14 15 18 19 AGCRL (Escherichia coli, UniProt P23836)	Sort-seq, refers to: YFP reporter	E. coli	PhoQ-PhoP variant library, together with: 10 µM Mg2+	relative to: high Mg2+ state, higher = stronger signaling	fold induction	12.4

For quick reference, copied from above (sample 3):
Sequence	fluorescence intensity [a.u.]
CTAACGAAGGTTTGGACTGTGGGTGACAAGCCAAGT	3360
CGACGCACCGAACGATACGGGGCTTGGCTGTTTTAT	2840
